Results gathered from unrelated publications.
Every numbered part comes from another study and shows a few of its results, in no order.

Block 1
Target: Hepatocyte nuclear factor 3-beta, forkhead domain (FOXA2, Homo sapiens, UniProt Q9Y261, residues 142-269)
Method: protein-binding microarray
Form: double-stranded DNA, one strand shown
Matrix: in vitro
Concentration: not given
Setting: k-mer, scored over probes, only values ≥0.25
Reading: higher = stronger binding
Target sequence (chain): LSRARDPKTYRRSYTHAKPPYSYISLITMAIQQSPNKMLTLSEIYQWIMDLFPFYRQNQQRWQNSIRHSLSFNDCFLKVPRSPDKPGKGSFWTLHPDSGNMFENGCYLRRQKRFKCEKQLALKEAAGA
For `ACAATTTA`, the E-score was 0.296.
The E-score of `ATATATGG` is reported as 0.402.
`ATGGAATA` gave an E-score of 0.325.
`CAACAACA` has an E-score of 0.354.

Block 2
Target: Interferon regulatory factor 3, full length, phosphomimetic (IRF3, Homo sapiens, UniProt Q14653, residues 1-427, S386D/S396D/S398D/S402D/T404D/S405D)
UniProt Q14653, sequence (whole entry, unmodified, looked up): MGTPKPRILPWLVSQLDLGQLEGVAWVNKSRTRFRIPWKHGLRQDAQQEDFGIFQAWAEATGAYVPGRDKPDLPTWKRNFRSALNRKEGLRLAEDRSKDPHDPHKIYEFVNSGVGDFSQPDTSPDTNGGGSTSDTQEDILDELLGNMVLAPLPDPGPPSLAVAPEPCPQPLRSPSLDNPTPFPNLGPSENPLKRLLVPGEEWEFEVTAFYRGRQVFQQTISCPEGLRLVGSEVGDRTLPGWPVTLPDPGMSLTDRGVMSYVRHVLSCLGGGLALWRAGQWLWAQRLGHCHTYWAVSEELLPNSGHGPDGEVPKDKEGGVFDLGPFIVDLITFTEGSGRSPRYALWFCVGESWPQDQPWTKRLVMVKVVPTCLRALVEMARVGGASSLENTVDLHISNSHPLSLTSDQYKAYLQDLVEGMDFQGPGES
Method: protein-binding microarray
Form: double-stranded DNA, one strand shown
Matrix: in vitro
Concentration: 2540 nM top
Setting: 60-bp whole probe
Together with: salmon DNA 0.4 mg/ml
Relative to: random background probes
Reading: higher = stronger binding
`GCCTAGCACTTAGAACTGAGTATCGATAAGTGCTAGGTCTTGATTCGCTTGACGCTGCTG` — result for “fitted relative affinity”: 0.0832 z-score.
Under “fitted relative affinity”, `GCCTAGCACTCAAATTTACTTTGGTTACTGTGCTAGGTCTTGATTCGCTTGACGCTGCTG` is recorded as 0.0206 z-score.
For `GCCTAGCACTCATTTTTCTGATTGAAACTGTGCTAGGTCTTGATTCGCTTGACGCTGCTG`, “fitted relative affinity” read 2.16 z-score.

Block 3
Target: Phosphate system positive regulatory protein PHO4, full length, GST-tagged (PHO4, Saccharomyces cerevisiae, UniProt P07270, residues 1-312)
Method: competition protein-binding microarray
Form: double-stranded DNA, one strand shown
Matrix: in vitro
Concentration: 2 µM
Setting: whole 60-bp probe, lowest competitor level
Together with: Cbf1 competitor, 0.05 µM
Reading: higher = stronger binding
Shared flanks, not repeated: … GTCTTGATTCGCTTGACGCTGCTG
Target sequence (chain): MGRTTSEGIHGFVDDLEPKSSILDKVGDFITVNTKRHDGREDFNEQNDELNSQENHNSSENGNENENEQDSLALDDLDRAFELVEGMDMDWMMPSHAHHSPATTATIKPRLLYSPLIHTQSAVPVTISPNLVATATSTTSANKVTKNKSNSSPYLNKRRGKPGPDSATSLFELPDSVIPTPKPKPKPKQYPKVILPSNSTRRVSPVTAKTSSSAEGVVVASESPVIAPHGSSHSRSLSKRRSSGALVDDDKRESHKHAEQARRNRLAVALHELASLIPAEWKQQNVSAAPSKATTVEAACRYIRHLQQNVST
`AAACTGTGTATGTTACACGTGAAGCGAGGCTTGGAA` has a fluorescence intensity of 11500 a.u.
With `AGCGGCATAAGTCGGCACGTCCCCTGAAAGTAGGCT` the fluorescence intensity was 7680 a.u.
`TAAATCGAAACCACCATCGTGTCCTTCCTTGGGAAC` gave a fluorescence intensity of 8330 a.u.
`ATAGATAGATGGCCGAACGTGGAATGCCTCTATGGG` gave a fluorescence intensity of 10600 a.u.
With `TTGTCGCTCGAAGGACACGTGTACTCATAATAACCC` the fluorescence intensity was 15400 a.u.

Further values, each from its own experiment
`PhoQ, residues 284 288 289 292 302 303 SIHLQL` has a fold induction of 14.2 (PhoP, residues 12 14 15 18 19 GHCSL (Escherichia coli, UniProt P23836); Sort-seq, item: YFP reporter; E. coli; PhoQ-PhoP variant library, together with: 10 µM Mg2+; relative to: high Mg2+ state, higher = stronger signaling).

Some of these lines once more (block 3):
`TAAATCGAAACCACCATCGTGTCCTTCCTTGGGAAC` gave a fluorescence intensity of 8330 a.u.
